Experimental data from different studies.
Every numbered part comes from another study and shows a few of its results, in no order.

Series 1 — technique: RNA Bind-n-Seq; form: RNA; matrix: in vitro; tested at: 200 nM; notes: whole 134-nt RNA, ends assumed; together with: 150 mM LiCl; relative to: input library; direction: higher = stronger binding; library: 7-deaza-guanosine replaces G
Target: Fragile X messenger ribonucleoprotein 1, C-terminal low-complexity region (Fmr1, Mus musculus, UniProt P35922)
Constant ends, left off below: GGGAGUUCUACAGUCCGACGAUC … UGGAAUUCUCGGGUGUCAAGG
Strand	log2 enrichment
UCUUCAGAGGCCCCACAGUAUCAAAUAUCCGCCUGGCUGGAUUAGAGUAUGUUCUGCACUUCACUGCACUGAAUGGGAAGAUUUACUUUC	0.793
CACAGACCACACGCACCCACACAGACACAGAGGGAAGGGGUUGGGAUGGGGACAGGGUGCACAGCAGGGCGGGGUAGGACCCCAGCCCCU	1.09
UCAAGUCCUGUGCUACACAUCGUAUGUACCGAAUCGGUUUGGAAAAAGGAAAGGAAAGUAUUAUGUUACGCCGUUCGGAUCUGCACUUCC	-1.06
AAGUCCUGUGCUACACAUCGUAUGUACCGAAUCGGGAAAAAGGGAAAAAGGGUGGGAAAGUAUUAUGUUACGCCGUUCGGAUCUGCACUU	-1.04
CUGUGCUACACAUCGUAUGUACCGAAUCGGCCCCCCCGGGCCCCCCCGGGGCCCCCCCGGGGAAAGUAUUAUGUUACGCCGUUCGGAUCU	-0.942
CUCAAGUCCUGUGCUACACAUCGUAUGUACCGAAUCGGGUUUGGUUUGGUUUGGAAAGUAUUAUGUUACGCCGUUCGGAUCUGCACUUCC	-0.474
AGUCCUGUGCUACACAUCGUAUGUACCGAAUCGGUUUUUUUGGAAAAAAAGGAAAGGAAAGUAUUAUGUUACGCCGUUCGGAUCUGCACU	-3.45
CUCAAGUCCUGUGCUACACAUCGUAUGUACCGAAUCGGGGCGGGGCGGGCGGGAAAGUAUUAUGUUACGCCGUUCGGAUCUGCACUUCCA	-0.303
UCCUGUGCUACACAUCGUAUGUACCGAAUCGGCCCCCCCGGGCCCCCCCGGCCCCCCCGGAAAGUAUUAUGUUACGCCGUUCGGAUCUGC	1.54
GUCCUGUGCUACACAUCGUAUGUACCGAAUCGGGGUUUUUGGGGAAAAAGGGGAGGGGAAAGUAUUAUGUUACGCCGUUCGGAUCUGCAC	-0.395
GCAGGAAGUAAAAACAAAUGGAAAUGCUUCGGAUAGUGGCAGGGGUGGGGGUUGCUAAGGAUAGGGUGGGAUGGGAGUGGGUAAAGAGUU	1.06

Series 2 — technique: protein binding microarray; form: double-stranded DNA, one strand shown; matrix: in vitro; tested at: not given; relative to: not given; direction: higher = stronger binding
Target: Histone acetyltransferase KAT6A, winged helix 2, GST fusion (KAT6A, Homo sapiens, UniProt Q92794, residues 85-181)
Notes: 8-mer, flanks averaged, mean of 2 arrays, mostly near background
Construct (chain): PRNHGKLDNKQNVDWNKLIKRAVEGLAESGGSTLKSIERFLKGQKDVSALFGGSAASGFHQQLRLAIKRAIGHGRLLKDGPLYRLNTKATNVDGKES
Strand	E-score
CGGGTGTA	-0.128
GCAGTCGA	0.0907
ATCGAGCA	0.173
AAGAGAAA	0.0423
ATCGCTAA	0.0351
AGTATTTC	0.107
CGCATCAC	-0.0716
ACGTCGAC	-0.0506
CCAAGGTC	0.00515
CCGCCCCG	0.357
CGACTGGC	-0.0555
AGTCGACA	-0.00503
GACACGCC	0.134
CAGATTGA	-0.108
CCAGTGAC	0.0747
GCCACGGC	0.133
ATACACCA	-0.107
CATCTTAC	-0.231

Series 3 — technique: universal PBM; form: double-stranded DNA, one strand shown; matrix: in vitro; tested at: 600 nM; direction: higher = stronger binding
Target: Sal-like protein 4, full length isoform A (SALL4, Homo sapiens, UniProt Q9UJQ4, residues 1-1053)
UniProt Q9UJQ4, sequence (whole entry, looked up): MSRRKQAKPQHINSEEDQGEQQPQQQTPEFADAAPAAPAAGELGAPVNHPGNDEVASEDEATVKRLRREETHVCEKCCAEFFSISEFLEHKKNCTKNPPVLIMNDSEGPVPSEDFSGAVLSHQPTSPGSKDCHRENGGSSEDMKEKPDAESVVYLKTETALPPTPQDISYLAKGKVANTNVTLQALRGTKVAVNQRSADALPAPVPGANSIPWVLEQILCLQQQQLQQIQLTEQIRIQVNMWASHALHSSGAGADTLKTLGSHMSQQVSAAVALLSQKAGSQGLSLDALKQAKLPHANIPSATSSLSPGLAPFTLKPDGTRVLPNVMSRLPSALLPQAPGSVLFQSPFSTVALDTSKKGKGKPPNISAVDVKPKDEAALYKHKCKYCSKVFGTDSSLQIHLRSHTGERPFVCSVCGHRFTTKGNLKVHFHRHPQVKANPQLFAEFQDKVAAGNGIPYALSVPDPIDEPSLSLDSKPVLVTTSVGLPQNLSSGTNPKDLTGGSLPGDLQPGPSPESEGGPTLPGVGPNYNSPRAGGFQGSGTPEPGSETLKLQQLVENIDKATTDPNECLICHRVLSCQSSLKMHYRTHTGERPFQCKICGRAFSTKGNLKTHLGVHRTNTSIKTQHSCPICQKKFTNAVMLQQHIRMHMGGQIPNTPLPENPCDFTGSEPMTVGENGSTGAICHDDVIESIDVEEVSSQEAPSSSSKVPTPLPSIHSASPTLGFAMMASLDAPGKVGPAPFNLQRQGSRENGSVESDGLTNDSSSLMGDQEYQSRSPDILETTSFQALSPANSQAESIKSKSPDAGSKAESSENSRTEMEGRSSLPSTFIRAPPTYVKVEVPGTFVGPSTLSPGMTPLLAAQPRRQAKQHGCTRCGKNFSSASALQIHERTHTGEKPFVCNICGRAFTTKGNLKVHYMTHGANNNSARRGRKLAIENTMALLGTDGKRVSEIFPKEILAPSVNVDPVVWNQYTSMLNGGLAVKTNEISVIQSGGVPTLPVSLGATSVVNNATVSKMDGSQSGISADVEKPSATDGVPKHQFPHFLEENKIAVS
Notes: 8-mer, flanks averaged, mean of replicates
Strand	E-score
TAATCCGA	0.162
AATCGCAG	0.107
GCAGGTAC	-0.255
CTGTTTTC	0.137
CTCCTAGC	-0.175
CGTGAACC	-0.207
GAAATAAA	0.292
CACAAAAC	0.0513
AAATCCTA	0.191
AAAGAACT	0.00541
ATATCCAC	0.192
ACATAACG	0.266
GGACGCAA	-0.225
AACTACCG	-0.146
CAAACGGG	-0.226
AAGTAGGA	0.0748
ATTGGGTG	0.0504
CTGGTTCC	-0.231
CACTTACC	0.0399
CGCGAACG	-0.196
ATAAACAA	0.376
CGCACCAC	-0.121
GAGTCGTA	0.0641
TCTGACAA	0.183
CTAGACCC	-0.303

Series 4 — technique: RNA Bind-n-Seq; form: RNA; matrix: in vitro; tested at: not given; relative to: input RNA pool; direction: higher = stronger binding
Target: RING finger protein unkempt homolog, zinc fingers 1-6, GST-SBP tag (UNK, Homo sapiens, UniProt Q9C0B0, residues 30-357)
UniProt Q9C0B0, sequence (30-357, looked up): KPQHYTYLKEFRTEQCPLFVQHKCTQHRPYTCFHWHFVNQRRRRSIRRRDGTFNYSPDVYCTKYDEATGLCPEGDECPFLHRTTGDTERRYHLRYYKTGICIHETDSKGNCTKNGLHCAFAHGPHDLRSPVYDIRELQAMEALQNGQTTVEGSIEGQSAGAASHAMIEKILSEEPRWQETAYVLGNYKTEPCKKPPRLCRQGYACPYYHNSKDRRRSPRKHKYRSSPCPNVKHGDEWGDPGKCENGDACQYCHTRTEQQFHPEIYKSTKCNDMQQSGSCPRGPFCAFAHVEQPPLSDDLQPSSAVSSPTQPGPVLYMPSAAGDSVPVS
Notes: RNA with constant flanks, human and mouse sites, ends assumed
Constant ends, left off below: GGGAGUUCUACAGUCCGACGAUC … CAACAGAGGAUUGAGCAUCA
Strand	bound/input enrichment [ratio]
GCUCCUAUUAAUGAAGUAGCACGAUUUAAUCUGAUGCAGGUAGGCCGCCUUUUGCAGCAGUUAGCAAUGACUGGCUCUGAAGAGGGAGAUCCCCGAACAAAGAGCAGCCUUGGAAAGUUU	0.313
UAUGCUGGGACCGCUAGCCCUUCCGGCGCGCCUCAGGACUUCGGGUCCCCUCACCCCGGGCGGAUGCCCAAAGACUCCGCCUUCCCAAGAGCCCCUGCGGCCGGGCGCGAAAAUGGCGGC	0.112
GCUAGUUUUAUCCCUGCAGUGAAUGAUUUGACCUCUGAUCUCUUUCGUACCAAAUCCAAAAGUGAAGAAAUCAAGAUUGAACUGGAAAAACUUGAAAAAAAUUUAACUGCAACUUUAGUA	3.62
UGCUCUACGGGUGAUGUGAUUCUGCAGGUAAAAGACCAUCAGGUUGUUUUUUUCCACAUCUGGGACACAGUUGUUUGUGUAGGAACAUAACAAGGGUGUACGGCUUUUCUUGAGCCCAUU	0.168
ACCCAAGUUGGAGUCAUUCGAUGCCCAGUUUGCAGUCAAGAGUGUGCUGAGAGACACAUCAUAGACAACUUUUUUGUGAAGGACACCACUGAAGUUCCUAGUAGUACAGUAGAAAAGUCU	7.12
GGCGGCAGCCCUGGUUAGCUGAUCACACCCAGGUGUCAUGAUGCCAACAUCCUAGGUUCCUAGUUUUUGGUUUUGGUAACUUAGUGCGUAGCUCCAGGUGCCGCAUCUACUCGCCAAUCU	0.222
GCAGCUAUUCCGCAUGCAGCAGAAGAUAUUCAAGGAGAUGACCGAUGGAUGUCUCAGCACAACAGAUUUGUUUUGGACUGUAAAGACAAAGAGCCUGAUGUACUGUUCGUGGGAGACUCC	0.279
GUGAAUCCAGGUACAAACUGGGGGGAGUCUCUCAAGCCUGGUCCCCAGCAGAACUGGGCUCAUAAGCCCCAAGACAACAAUGUGAGUAACUGGGGAGGAGCUGCUUCUGUUAAGCAGACA	0.235
CUGACCCAUAAUAACGGAAAGUUUAACAAUGACUCACAUUCUCCUAAAGUUUCCAGCCAGAAUAGGACACGCUCAUUUGGUCAUUUUCCCGGUCCAGAGUUCUUGGAUGUAGAGAAAACU	0.29
UCUUCCGCCCCGGCCCGGAAGGGUGAUGUGGCUGGACCAGCACCGGCCUCACUAUGUCUGCCAUUUUCAAUUUUCAGAGUCUGUUGACUGUAAUCUUGCUGCUUAUAUGUACAUGUGCUU	0.388
UUUACAGCAGAAGACAGUGGGAAAGAGAGCAAGACUCCUCCCGCGGAAGGACAAGAGAAGCAGCUGGUUACAUGGAGACUGAAGCUCACCCCUGUUGACUACCUGCUGGGCGUGGCCGAC	0.25

Series 5 — technique: protein-binding microarray; form: double-stranded DNA, one strand shown; matrix: in vitro; tested at: 250 nM; notes: 60-bp whole probe; together with: salmon DNA 0.4 mg/ml; relative to: random background probes; direction: higher = stronger binding; constant ends, left off below: GCCTAGCAC … GTCTTGATTCGCTTGACGCTGCTG
Target: Interferon regulatory factor 5, full length, phosphomimetic (IRF5, Homo sapiens, UniProt Q13568-2, residues 1-514, K96S/S451D/S453D/S456D/S462D)
Strand	log fluorescence [z-score]
TGGGCATTTTTTTTATCAATGTGCTAG	0.207
TTAGGTCTCGGTCTCCGTTAGTGCTAG	0.314
GACGGTCTCCTTATGCTGACGTGCTAG	-0.262
GACGGTCGCCTTTTCCTGACGTGCTAG	-0.276
CTAGGTCTCGGACTGGGTTAGTGCTAG	-0.475
GACGGTATCGGGTTTTGGGACGTGCTA	1.94
TTAGGACTGCCTATCCTTTAGTGCTAG	-0.479
TTAGAACTGAGACTGAATTAGTGCTAG	0.0497
TCATATGTCATTTACATACTGTGCTAG	0.316
TTATGTCTCGGTTTCGGTTAGTGCTAG	9.16
CATCCTGAGTCAAGTCAAGTGTGCTAG	-0.419
TCACATTAAATTTTAATACTGTGCTAG	0.822
TTAGATCTCAGTATCGCTTAGTGCTAG	2.28
TTCGGTCTCGGTATCGGTTAGTGCTAG	6.14
TTAGGTCTCCTTATCCATTAGTGCTAG	-0.223
TCATAAGCAAAAATGATACTGTGCTAG	0.576
CACTCTCTACATGTGTTTAAGTGCTAG	0.403
TTAGGTTACGGTTTCGGTTAGTGCTAG	8.3
GACGAACTGGGGTCTCGAGACGTGCTA	-0.471
TTACAACTGAGTTTCGATTAGTGCTAG	9.6
GACGGTTTCGGTTTCGAGACGTGCTAG	10.9
TTAGATATCGGTCTCGATTAGTGCTAG	5.21
TTAGGTATCGCACTGGGTTAGTGCTAG	0.598
TTAGATTTCTGTTCCGATTAGTGCTAG	3.45
GACGGACTGCTTATCCTAACGTGCTAG	-0.233
